Results pooled from the literature.
Compare with care: the assays were run in different laboratories. ± marks the error that the study gave.
HTR2B: 5-hydroxytryptamine receptor 2B (HTR2B, Homo sapiens, UniProt P41595)
Histone chaperone ASF1A: Histone chaperone ASF1A (Homo sapiens, UniProt Q9Y294)
lecA: PA-I galactophilic lectin (lecA, Pseudomonas aeruginosa, UniProt Q05097)

Clc1ccc2ccc3[n+](c2c1)[Ir-3]12([c]4ccccc4-3)([c]3ccccc3-c3ccc4ccc(Cl)cc4[n+]31)[n+]1ccccc1-c1cccc[n+]12.F[P-](F)(F)(F)(F)F  melting temperature (CDK9 (Homo sapiens, UniProt P50750); CETSA; MDA-MB-231 lysate; 3 µM, 30 min): 60 °C
COc1cccc2c1C(=O)c1c(O)c3c(c(O)c1C2=O)CC(O)(C(=O)CO)CC3OC1CC(NC(=O)C[C@H](N)C(=O)O)C(O)C(C)O1 (stereo partly drawn)  Km (SLC7A5 (Homo sapiens, UniProt Q01650); transport, substrate; S2 cells expressing SLC7A5): 41.4 µM
CNc1ccccc1C(=O)O[C@H]1C[C@H](n2cnc3c(N)ncnc32)O[C@@H]1COP(=O)(O)OP(=O)(O)O  dissociation rate constant (Unconventional myosin-Va (Gallus gallus, UniProt Q02440, D297C/G292C/I296C/S293C/V295G); stopped-flow FRET; 10 °C, with: EDTA 4 mM): 25.3 ± 0.2 s⁻¹
Cn1ccc2c(N3CCN(CCCCOc4ccc5c(c4)NC(=O)CC5)CC3)cccc21  efficacy (HTR2B; arrestin recruitment, Tango; cells; baseline: serotonin): ~25%
CC(C)=CCC[C@](C)(O)[C@H]1CC[C@]2(C)[C@@H]1[C@H](O)C[C@@H]1[C@@]3(C)CC[C@H](O)C(C)(C)[C@@H]3CC[C@]12C  binding enthalpy (YWHAZ (Homo sapiens, UniProt P63104); isothermal titration calorimetry; concentration not given): -1.93 ± 0.179 kcal/mol
Cc1ncsc1-c1ccc(CNC(=O)[C@@H]2C[C@@H](O)CN2C(=O)[C@@H](NC(=O)COCCOCCOCCNC(=O)C[C@@H]2N=C(c3ccc(Cl)cc3)c3c(sc(C)c3C)-n3c(C)nnc32)C(C)(C)C)cc1  ΔG (BRD2/VHL, BD1; with VCB (Homo sapiens, UniProt P25440+P40337); ITC; Brd2^BD1, ternary): -20.3 ± 0.2 kcal/mol
C=CCOc1ccc(C[C@@H]2NC(=O)[C@H](C(C)C)NC(=O)[C@@H](NC(=O)[C@@H](NC(C)=O)[C@@H](C)CC)CSSC[C@@H](C(=O)N[C@H](C(N)=O)[C@@H](C)O)NC(=O)[C@H](CCCNC(=N)N)NC(=O)[C@H](Cc3c[nH]cn3)NC(=O)[C@H](C)NC(=O)CNC(=O)[C@H](Cc3c[nH]c4ccccc34)NC(=O)[C@H](CC(=O)O)NC(=O)[C@H](CCC(N)=O)NC2=O)cc1  koff (Complement C3, C3b fragment (Homo sapiens, UniProt P01024); SPR; pH 7.4, 25 °C): 0.063 ± 0.015 s⁻¹
CC[C@H](C)[C@H](NC(=O)[C@H](CCCNC(=N)N)NC(=O)[C@H](CCCNC(=N)N)NC(=O)[C@H](C)NC(=O)[C@H](CC(C)C)NC(=O)[C@H](CCCNC(=N)N)NC(=O)[C@H](C)NC(=O)[C@H](Cc1c[nH]c2ccccc12)NC(=O)[C@H](CCCCN)NC(=O)[C@H](CCC(=O)O)NC(C)=O)C(=O)N[C@@H](C)C(=O)NCC(N)=O  binding stoichiometry (Histone chaperone ASF1A; isothermal titration calorimetry; concentration not given, pH 7.5, 20 °C): 1.1 ± 0.2
Nc1nc2c(ncn2[C@@H]2O[C@@H]3COP(=O)(O)O[C@H]4[C@@H](O)[C@H](n5cnc6c(=O)[nH]c(N)nc65)O[C@@H]4COP(=O)(O)O[C@H]3[C@H]2O)c(=O)[nH]1  2'3'-cGAMP uptake (SLC19A1 (Homo sapiens, UniProt P41440); inhibitor; THP-1; 100 µM, 1 h): inhibited
O=[N+]([O-])c1ccc(O)c(O)c1  ligand efficiency (lecA; surface plasmon resonance): 0.4
CC[C@H](C)[C@H](NC(C)=O)C(=O)N[C@H]1CSSC[C@@H](C(=O)N(C)[C@H](C(N)=O)[C@@H](C)CC)NC(=O)[C@H](CCCNC(=N)N)NC(=O)[C@H](Cc2c[nH]cn2)NC(=O)[C@H](C)NC(=O)CN(C)C(=O)[C@H](Cc2c[nH]c3ccccc23)NC(=O)[C@H](CC(=O)O)NC(=O)[C@H](CCC(N)=O)NC(=O)[C@H](Cc2cn(C)c3ccccc23)NC(=O)[C@H](C(C)C)NC1=O  ΔH of binding (Complement C3 (Homo sapiens, UniProt P01024); ITC; PBS; concentration not given, pH 7.4, 25 °C): -17.1 kcal/mol
NC(=O)CN1C(=O)C(O)(CC(=O)c2cccc(N)c2)c2ccccc21 (stereo not drawn)  TΔS (uncharacterized protein (Leishmania donovani, UniProt A0A3Q8IA09); competitive ITC; with: glutamate 60 µM): -4.62 kcal/mol
[N-]=[N+]=N[C@H]1[C@H](O)[C@@H](O)[C@H](n2cc(CO[C@@H]3O[C@H](CO)[C@H](O)[C@H](O)[C@H]3O)nn2)O[C@@H]1CO  binding stoichiometry (lecA; isothermal titration calorimetry; concentration not given, 25 °C): 1 ± 0.01
O=C(CCCCCCS)Nc1ccccc1  intrinsic binding enthalpy (HDAC8 (Homo sapiens, UniProt Q9BY41); isothermal titration calorimetry; concentration not given, pH 7.5): -0.06 ± 0.1 kcal/mol
c1ccc2c(NCCCCCCCCCCNc3ccnc4ccccc34)ccnc2c1  affinity increase (ADRA2A (Homo sapiens, UniProt P08913, W114A); baseline: W99A over wild type): 1.7 fold
COc1cncc(C(=O)N2CC3CCC(N)C3C2)n1 (stereo not drawn)  Emax (HTR2B; β-arrestin recruitment, agonist): 112%
C[C@@H]1NC(=O)[C@H](CC(N)=O)NC(=O)c2cc3ccccc3cc2NC(=O)[C@H](Cc2ccccc2)NC(=O)[C@H](CCCNC(=N)N)NC(=O)[C@@H]2CCCN2C(=O)[C@H]2CCCN2C(=O)[C@H](Cc2ccccc2)NC1=O  antagonist activity (Melanocortin receptor 3 (Mus musculus, UniProt P33033); antagonist, cAMP β-galactosidase reporter; no activity up to, with: MTII): > 100 µM
Cc1cc(Nc2cc(CN(C)C)cc(NC(=O)c3cccc(Nc4ccnc5ccccc45)c3)c2)nc(N)n1  kcat (DNA polymerase eta (POLH, Homo sapiens, UniProt Q9Y253); dATP incorporation; 15 µM): 0.0833 s⁻¹
CCCC[C@@H](CNC(=O)N[C@@H](CCC(N)=O)CNC(=O)N[C@@H](CCCNC(=N)N)C(=O)N[C@H](C(=O)N[C@@H](C)C(N)=O)[C@@H](C)CC)NC(=O)NC[C@H](CCCNC(=N)N)NC(=O)NC[C@H](Cc1ccc2ccccc2c1)NC(=O)[C@H](CCCCN)NC(=O)[C@H](CCC(=O)O)NC(C)=O  -TΔS (Histone chaperone ASF1A; isothermal titration calorimetry; pH 7.5, 20 °C): -4.6 ± 0.4 kcal/mol
COC(=O)C1=Cc2ccccc2S1(=O)=O  autoubiquitination (E3 ubiquitin-protein ligase RNF5, RING domain (Homo sapiens, UniProt Q99942); inhibitor; 0, 5, 10 µM, 30 min, 30 °C, RNF5 N-terminal domain): inhibited
[3H]C([3H])([3H])c1cnccc1CN1C[C@@H](c2cc(F)c(F)c(F)c2)CC1=O  total binding (SV2A (Homo sapiens, UniProt Q7L0J3); radioligand binding, autoradiography; human, post-mortem frontal gray matter; 5 nM): 405 fmol/mg
NC(CNC(CNC(CC(=O)O)C(=O)O)C(=O)O)C(=O)O (stereo not drawn)  remaining activity (IMP-7 metallo-beta-lactamase; 500 µM, 60 min, Zn-depleted buffer): 35.6 ± 2%
Cc1ccc(C(=O)Nc2ccc(CP(=O)(O)O)cc2CP(=O)(O)O)cc1NC(=O)c1cccc(NC(=O)Nc2cccc(C(=O)Nc3cc(C(=O)Nc4ccc(CP(=O)(O)O)cc4CP(=O)(O)O)ccc3C)c2)c1  Hill slope (F11 (Homo sapiens, UniProt P03951); enzyme activity, inhibitor; pH 7.4, 37 °C, with: S-2366 substrate): 1.9 ± 0.5
NCCO[C@H]1[C@H](O)[C@@H](O)[C@@H]2O[C@@H]2[C@@H]1C(=O)O  highest non-inhibiting concentration (Beta-glucuronidase (GUSB, Homo sapiens, UniProt P08236); inhibitor, competitive ABPP; human platelet lysate): > 100 µM
Cc1cccc(C)c1Nc1nn(C)c2nc(Nc3ccc4c(c3)CN(CC3CCN(c5ccc6c(c5)C(=O)N(C5CCC(=O)NC5=O)C6=O)CC3)CC4)ncc12 (stereo not drawn)  hook effect onset (BTK/CRBN (Homo sapiens, UniProt Q06187+Q96SW2); ternary complex formation, TR-FRET; 30 min): ~160 nM
O=C(COCCCCc1ccccc1)N[C@@H](Cc1cn(CCNC(=O)c2ccc(S[C@@H]3O[C@H](CO)[C@H](O)[C@H](O)[C@H]3O)cc2)nn1)C(=O)NCCO  binding stoichiometry (lecA; isothermal titration calorimetry; concentration not given): 0.8 ± 0.1
O=C1Nc2ccc(F)cc2/C1=N/N=C/c1cccc(OCc2ccccc2)c1  remaining activity (MAOA (Homo sapiens, UniProt P21397); enzyme activity, inhibitor; 10 µM): 35.9%
COc1cc(-c2ncn(/C=C\C(=O)OC(C)C)n2)cc(C(F)(F)F)c1  time to full inhibition (Exportin-1 (CRM1, Saccharomyces cerevisiae, UniProt P30822, del377-413/T539C); binding to PKI NES, inhibitor, pull-down; 10 µM): 5 min
COC(=O)c1ccc(/C=N/NS(=O)(=O)c2ccc(OC)c(OC)c2)cc1  IC50 (DPP4 (Homo sapiens, UniProt P27487); enzyme activity, inhibitor): inactive
OC[C@H]1O[C@@H](OCc2cn([C@@H]3O[C@H](CO)[C@@H](n4cc(CCCCc5cn([C@H]6[C@H](O)[C@@H](O)[C@H](n7cc(CO[C@@H]8O[C@H](CO)[C@H](O)[C@H](O)[C@H]8O)nn7)O[C@@H]6CO)nn5)nn4)[C@H](O)[C@H]3O)nn2)[C@H](O)[C@@H](O)[C@H]1O  ΔG (lecA; isothermal titration calorimetry; 25 °C): -10.8 ± 0.14 kcal/mol
